{"data": "Measured values pooled from the literature", "Genome polyprotein NS2B-NS3 protease": "Genome polyprotein, NS2B-NS3 protease (dengue virus type 2, UniProt P29990)", "HDAC11": "Histone deacetylase 11 (HDAC11, Homo sapiens, UniProt Q96DB2)", "TNKS": "Poly [ADP-ribose] polymerase tankyrase-1 (TNKS, Homo sapiens, UniProt O95271)", "SIRT5": "NAD-dependent protein deacylase sirtuin-5, mitochondrial (SIRT5, Homo sapiens, UniProt Q9NXA8)", "VIPR1": "Vasoactive intestinal polypeptide receptor 1 (VIPR1, Homo sapiens, UniProt P32241)", "note": "Several values in a cell are separate wells, animals, samples, runs or records. Numbers after ± are the reported error.", "sequence of UniProt Q96DB2 (whole entry, looked up)": "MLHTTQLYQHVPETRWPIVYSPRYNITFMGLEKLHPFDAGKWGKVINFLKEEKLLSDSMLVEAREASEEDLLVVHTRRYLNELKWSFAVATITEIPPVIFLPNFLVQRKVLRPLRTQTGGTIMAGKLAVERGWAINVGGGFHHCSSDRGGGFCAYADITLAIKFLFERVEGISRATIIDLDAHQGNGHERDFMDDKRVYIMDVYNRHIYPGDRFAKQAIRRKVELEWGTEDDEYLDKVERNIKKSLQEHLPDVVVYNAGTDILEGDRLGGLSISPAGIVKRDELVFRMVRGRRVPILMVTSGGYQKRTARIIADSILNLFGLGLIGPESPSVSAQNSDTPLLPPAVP", "sequence of UniProt P32241 (whole entry, looked up)": "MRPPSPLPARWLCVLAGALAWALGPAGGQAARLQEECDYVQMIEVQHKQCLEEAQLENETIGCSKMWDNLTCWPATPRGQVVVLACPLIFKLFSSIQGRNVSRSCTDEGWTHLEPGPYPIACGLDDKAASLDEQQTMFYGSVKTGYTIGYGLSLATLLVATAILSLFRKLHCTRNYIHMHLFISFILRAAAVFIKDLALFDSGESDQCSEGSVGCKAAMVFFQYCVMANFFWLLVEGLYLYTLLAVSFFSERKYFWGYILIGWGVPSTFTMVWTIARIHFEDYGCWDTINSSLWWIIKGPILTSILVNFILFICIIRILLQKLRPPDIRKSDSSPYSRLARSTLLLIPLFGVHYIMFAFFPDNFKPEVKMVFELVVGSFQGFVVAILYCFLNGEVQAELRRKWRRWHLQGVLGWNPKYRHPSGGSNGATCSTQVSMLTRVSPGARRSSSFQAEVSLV", "sequence of UniProt Q13148 (whole entry, looked up)": "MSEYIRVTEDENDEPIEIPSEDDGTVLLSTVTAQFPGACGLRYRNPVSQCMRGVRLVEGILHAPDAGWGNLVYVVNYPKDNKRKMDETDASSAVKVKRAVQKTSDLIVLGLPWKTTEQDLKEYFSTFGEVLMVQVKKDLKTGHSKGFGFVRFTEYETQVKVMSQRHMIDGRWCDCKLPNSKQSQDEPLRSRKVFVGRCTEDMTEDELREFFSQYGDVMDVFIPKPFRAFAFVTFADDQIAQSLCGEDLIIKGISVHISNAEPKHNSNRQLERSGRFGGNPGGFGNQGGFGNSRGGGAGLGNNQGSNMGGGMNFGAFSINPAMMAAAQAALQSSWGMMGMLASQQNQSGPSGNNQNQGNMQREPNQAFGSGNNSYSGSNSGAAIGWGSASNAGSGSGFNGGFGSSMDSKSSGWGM", "sequence of UniProt O95271 (whole entry, looked up)": "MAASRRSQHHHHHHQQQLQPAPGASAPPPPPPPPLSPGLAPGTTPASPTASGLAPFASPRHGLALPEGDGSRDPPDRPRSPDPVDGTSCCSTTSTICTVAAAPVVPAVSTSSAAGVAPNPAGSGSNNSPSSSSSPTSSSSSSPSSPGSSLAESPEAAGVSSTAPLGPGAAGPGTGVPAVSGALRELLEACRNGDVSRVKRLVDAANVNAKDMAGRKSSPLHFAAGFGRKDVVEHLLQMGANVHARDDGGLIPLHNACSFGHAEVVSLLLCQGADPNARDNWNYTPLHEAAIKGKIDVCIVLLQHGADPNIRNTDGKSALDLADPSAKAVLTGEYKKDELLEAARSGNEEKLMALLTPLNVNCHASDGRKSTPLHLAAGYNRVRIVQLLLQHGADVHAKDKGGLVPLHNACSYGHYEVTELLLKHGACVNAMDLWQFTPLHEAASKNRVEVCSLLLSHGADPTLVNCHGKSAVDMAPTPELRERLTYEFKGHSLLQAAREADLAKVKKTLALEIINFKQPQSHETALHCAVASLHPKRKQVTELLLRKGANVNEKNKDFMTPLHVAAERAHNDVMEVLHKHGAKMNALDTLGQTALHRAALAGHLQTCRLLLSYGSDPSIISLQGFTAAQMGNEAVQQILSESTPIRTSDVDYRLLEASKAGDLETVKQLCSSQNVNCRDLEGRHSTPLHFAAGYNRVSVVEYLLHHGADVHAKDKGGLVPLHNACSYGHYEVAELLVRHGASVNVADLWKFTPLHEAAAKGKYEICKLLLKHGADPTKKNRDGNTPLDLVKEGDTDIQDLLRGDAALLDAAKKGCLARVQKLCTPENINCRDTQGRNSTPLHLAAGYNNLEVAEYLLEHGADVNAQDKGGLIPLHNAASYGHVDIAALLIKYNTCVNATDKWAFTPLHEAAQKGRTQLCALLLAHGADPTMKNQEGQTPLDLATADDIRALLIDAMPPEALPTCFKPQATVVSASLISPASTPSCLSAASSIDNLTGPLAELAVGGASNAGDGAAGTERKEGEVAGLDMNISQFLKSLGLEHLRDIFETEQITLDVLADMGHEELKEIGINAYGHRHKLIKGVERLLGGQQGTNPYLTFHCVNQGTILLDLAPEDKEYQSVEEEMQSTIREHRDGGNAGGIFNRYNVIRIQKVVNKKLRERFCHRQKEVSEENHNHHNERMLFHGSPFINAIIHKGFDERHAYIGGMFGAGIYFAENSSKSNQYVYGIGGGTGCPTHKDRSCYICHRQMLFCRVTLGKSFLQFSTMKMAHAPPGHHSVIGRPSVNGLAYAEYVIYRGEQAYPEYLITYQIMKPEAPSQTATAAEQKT", "sequence of UniProt Q9NXA8 (whole entry, looked up)": "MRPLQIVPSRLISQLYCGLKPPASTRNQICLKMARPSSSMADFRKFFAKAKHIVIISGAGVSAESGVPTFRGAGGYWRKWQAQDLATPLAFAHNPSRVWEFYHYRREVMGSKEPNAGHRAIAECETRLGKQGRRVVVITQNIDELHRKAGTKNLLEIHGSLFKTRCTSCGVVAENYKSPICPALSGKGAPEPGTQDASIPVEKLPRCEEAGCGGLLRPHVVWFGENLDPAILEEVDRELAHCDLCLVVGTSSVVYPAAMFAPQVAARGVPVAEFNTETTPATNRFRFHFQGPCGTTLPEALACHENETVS", "sequence of UniProt P56524 (whole entry, looked up)": "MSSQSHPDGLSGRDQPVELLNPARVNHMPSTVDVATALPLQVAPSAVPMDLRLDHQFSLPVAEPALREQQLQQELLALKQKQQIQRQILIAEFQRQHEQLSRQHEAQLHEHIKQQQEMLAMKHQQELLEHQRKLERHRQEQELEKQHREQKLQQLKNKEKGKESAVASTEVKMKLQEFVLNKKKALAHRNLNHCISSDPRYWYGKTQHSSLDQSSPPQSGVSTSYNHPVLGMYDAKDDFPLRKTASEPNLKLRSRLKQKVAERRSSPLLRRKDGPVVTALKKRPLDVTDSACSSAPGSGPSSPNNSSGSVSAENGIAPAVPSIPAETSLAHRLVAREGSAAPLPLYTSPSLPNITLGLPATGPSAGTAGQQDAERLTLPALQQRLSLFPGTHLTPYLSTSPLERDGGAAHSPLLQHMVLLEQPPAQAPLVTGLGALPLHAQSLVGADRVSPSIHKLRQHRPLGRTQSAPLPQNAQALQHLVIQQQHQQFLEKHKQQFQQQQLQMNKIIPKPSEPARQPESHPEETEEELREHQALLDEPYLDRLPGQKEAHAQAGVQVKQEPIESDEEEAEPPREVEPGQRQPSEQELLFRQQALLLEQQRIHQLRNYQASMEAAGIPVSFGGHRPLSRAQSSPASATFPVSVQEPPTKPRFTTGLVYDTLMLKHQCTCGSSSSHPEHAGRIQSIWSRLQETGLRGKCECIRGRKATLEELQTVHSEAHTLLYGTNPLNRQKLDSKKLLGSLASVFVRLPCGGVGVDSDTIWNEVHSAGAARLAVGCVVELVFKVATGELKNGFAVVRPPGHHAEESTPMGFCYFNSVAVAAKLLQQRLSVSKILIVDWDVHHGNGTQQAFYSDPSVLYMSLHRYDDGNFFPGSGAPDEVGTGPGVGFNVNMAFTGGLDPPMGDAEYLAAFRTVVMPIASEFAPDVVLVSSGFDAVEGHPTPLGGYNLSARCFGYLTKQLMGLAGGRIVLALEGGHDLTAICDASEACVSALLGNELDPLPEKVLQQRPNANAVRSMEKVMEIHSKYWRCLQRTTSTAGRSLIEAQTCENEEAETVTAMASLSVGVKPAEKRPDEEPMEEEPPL", "sequence of UniProt P21728 (whole entry, looked up)": "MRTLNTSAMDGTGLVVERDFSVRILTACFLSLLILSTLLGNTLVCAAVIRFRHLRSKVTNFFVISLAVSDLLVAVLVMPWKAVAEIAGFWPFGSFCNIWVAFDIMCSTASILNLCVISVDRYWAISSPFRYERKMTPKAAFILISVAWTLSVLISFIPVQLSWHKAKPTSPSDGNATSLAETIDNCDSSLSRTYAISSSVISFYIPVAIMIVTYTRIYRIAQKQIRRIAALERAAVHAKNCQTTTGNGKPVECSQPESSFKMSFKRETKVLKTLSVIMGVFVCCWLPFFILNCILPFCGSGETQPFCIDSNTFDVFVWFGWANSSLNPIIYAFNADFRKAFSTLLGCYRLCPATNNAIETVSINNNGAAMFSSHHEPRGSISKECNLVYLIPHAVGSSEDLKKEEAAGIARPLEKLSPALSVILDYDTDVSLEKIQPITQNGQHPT", "sequence of UniProt P34972 (whole entry, looked up)": "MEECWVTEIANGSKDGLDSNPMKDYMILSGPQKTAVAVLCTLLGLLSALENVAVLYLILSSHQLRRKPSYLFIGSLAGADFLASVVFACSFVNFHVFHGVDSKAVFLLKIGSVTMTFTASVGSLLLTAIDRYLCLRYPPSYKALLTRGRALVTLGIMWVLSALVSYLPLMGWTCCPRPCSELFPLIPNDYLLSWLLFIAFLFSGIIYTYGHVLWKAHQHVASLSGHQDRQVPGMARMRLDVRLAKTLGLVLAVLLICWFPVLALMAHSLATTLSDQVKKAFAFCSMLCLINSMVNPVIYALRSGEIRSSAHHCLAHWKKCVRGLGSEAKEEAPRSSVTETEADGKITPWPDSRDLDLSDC", "sequence of UniProt P51452 (whole entry, looked up)": "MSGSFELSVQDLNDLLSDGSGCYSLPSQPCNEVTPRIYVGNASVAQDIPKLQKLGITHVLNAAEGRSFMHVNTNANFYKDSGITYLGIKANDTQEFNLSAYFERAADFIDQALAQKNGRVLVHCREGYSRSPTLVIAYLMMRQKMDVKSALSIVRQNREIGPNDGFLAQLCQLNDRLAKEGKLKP"}
{"Compound": "O=C(Nc1ccc(CNc2ncccn2)cc1)c1cc(-c2ccccc2)n(-c2ccccc2)n1", "target": "Genome polyprotein NS2B-NS3 protease", "assay": "enzyme activity, fluorogenic AMC substrate", "conditions": "50 µM", "inhibition": "53%"}
{"Compound": "CC(C)(C)c1cccc(OS(=O)(=O)Oc2cc(F)cc(C(=O)NO)c2)c1", "target": "HDAC11", "conditions": "5 µM", "inhibition": "48%"}
{"Compound": "O=C1c2sc(-c3ccc(N4CCC(CO)CC4)nc3F)nc2CCN1c1cccnc1", "target": "CCR2 (Homo sapiens, UniProt P41597)", "assay": "ligand displacement, radioligand", "conditions": "1 µM", "inhibition": "3%"}
{"Compound": "O=C(Nc1ccc(N2CCNCC2)cc1)c1cc(-c2ccccc2)n(-c2ccccc2)n1", "target": "Genome polyprotein NS2B-NS3 protease", "assay": "enzyme activity, fluorogenic AMC substrate", "conditions": "50 µM", "inhibition": "53%"}
{"Compound": "CN(C)C/C=C/C(=O)Nc1ccc2nc(NCCCCCN(C)C)nc(NCCCCCCN(C)C)c2c1", "target": "BCDIN3D (Homo sapiens, UniProt Q7Z5W3)", "assay": "enzyme activity, inhibitor, radiometric", "conditions": "10 µM", "inhibition": "76%"}
{"Compound": "Cn1sc(Nc2c(Cl)ccc3ncccc23)c(C#N)c1=O", "target": "TNKS", "assay": "enzyme activity, inhibitor", "conditions": "10 µM", "inhibition": "2%"}
{"Compound": "O=C(NC1CCC1)[C@H](Cc1c[nH]c2ccccc12)NC(=O)[C@H](CCCCNC(=S)Nc1cccc(B(O)O)c1)NS(=O)(=O)c1cccc(F)c1", "target": "SIRT5", "assay": "enzyme activity, inhibitor", "conditions": "100 µM", "inhibition": "17%"}
{"Compound": "COc1ccc(C(=O)Nc2c(-c3cccs3)nc3ccccn23)cc1", "target": "HRH4 (Homo sapiens, UniProt Q9H3N8)", "assay": "ligand displacement, radioligand", "conditions": "10 µM", "inhibition": "< 50%"}
{"Compound": "O=C(Nc1ccc(C(F)F)cc1)[C@H](CC1CCCCC1)Nc1nn2c(=O)ccnc2s1", "target": "DUSP3 (Homo sapiens, UniProt P51452)", "assay": "enzyme activity, inhibitor", "conditions": "10 µM", "inhibition": "1%"}
{"Compound": "COc1cc(OC)c(F)c(/C=C/c2cnc3ccn(S(=O)(=O)c4cn(CCF)cn4)c3n2)c1F", "target": "ERBB2 (Homo sapiens, UniProt P04626)", "conditions": "100 nM", "inhibition": "1.6%"}
{"Compound": "CCCCCCCCCCCCCC(=S)NCCCC[C@H](NS(C)(=O)=O)C(=O)N[C@@H](C)C(=O)N[C@@H](CCCNC(=N)N)C(N)=O", "target": "SIRT5", "assay": "enzyme activity, inhibitor", "conditions": "100 µM", "inhibition": "< 5%"}
{"Compound": "C[Si](C)(C)C[C@@H](CN)CC(=O)O", "target": "TACR2 (Homo sapiens, UniProt P21452)", "assay": "ligand displacement, radioligand", "conditions": "75 µM", "inhibition": "-13%"}
{"Compound": "O=C1c2sc(-c3ccc(N4CCC(F)C4)nc3F)nc2CCN1c1cccnc1 (stereo not drawn)", "target": "TAR DNA-binding protein 43, aggregated (TARDBP, Homo sapiens, UniProt Q13148)", "assay": "radioligand binding", "test system": "homogenate, FTLD-TDP, type A", "conditions": "1000 nM, with: [3H]ACI-19626", "inhibition": "82.9% and 87.1%"}
{"Compound": "Cc1ccc(-n2nc(C(=O)Nc3cccc(C(N)=O)c3)cc2-c2ccc(CC(C)C)cc2)cc1", "target": "Genome polyprotein NS2B-NS3 protease", "assay": "reporter gene", "test system": "HeLa", "conditions": "12.5 µM", "inhibition": "56%"}
{"Compound": "CN(Cc1ccc(/C=C/C(=O)NO)cc1)CC12CC3CC(CC(C3)C1)C2", "target": "human GAL2 receptor", "assay": "radioligand binding", "conditions": "0.05 µM", "inhibition": "1%"}
{"Compound": "CCCCCCCCCCCCCCCC(=O)N[C@@H](CCCCN)C(=O)N[C@@H](CCCCN)C(=O)N[C@@H](CO)C(=O)N[C@@H](CCCNC(=N)N)C(=O)N[C@@H](C)C(=O)N[C@@H](CC(C)C)C(=O)N[C@@H](Cc1ccccc1)C(N)=O", "target": "F2RL3 (Homo sapiens, UniProt Q96RI0)", "assay": "platelet aggregation, ex vivo LTA", "test system": "human", "conditions": "0.3 mg/kg, 30 min, with: AYPGKF 160 µM", "scale": "relative to: baseline", "inhibition": "16%"}
{"Compound": "C/C=C/C(=O)Nc1ccc2nc(NCCCCCN(C)C)nc(NCCCCCCN(C)C)c2c1", "target": "PRMT9 (Homo sapiens, UniProt Q6P2P2)", "assay": "enzyme activity, inhibitor, radiometric", "conditions": "10 µM", "inhibition": "42%"}
{"Compound": "NC(=O)c1ccccc1NC(=O)c1cc(-c2ccccc2)n(-c2ccccc2)n1", "target": "Genome polyprotein NS2B-NS3 protease", "assay": "enzyme activity, fluorogenic AMC substrate", "conditions": "50 µM", "inhibition": "98%"}
{"Compound": "CCC(=O)N(C)c1ccc(Cl)c(Cl)c1", "target": "VIPR1", "assay": "ligand displacement, radioligand", "conditions": "10 µM", "inhibition": "< 10%"}
{"Compound": "CC(=O)N[C@H](C(=O)N[C@@H](CO)C(=O)N[C@@H](Cc1ccccc1)C(=O)N[C@H]1CCCCNC(=N)Nc2ccc(cc2)CCNC(=N)NCCCC[C@@H](C(=O)N2CCC[C@H]2C(N)=O)NC(=O)[C@H](CC(C)C)NC(=O)[C@H](CC(C)C)NC(=O)[C@H](C)NC(=O)[C@H](Cc2c[nH]c3ccccc23)NC(=O)[C@H](Cc2ccc(O)cc2)NC(=O)[C@H](CCC(=O)O)NC1=O)[C@@H](C)O", "target": "MDM2 (Homo sapiens, UniProt Q00987)", "assay": "protein-protein interaction, inhibitor, TR-FRET", "conditions": "0.1 µM", "inhibition": "96%"}
{"Compound": "O=C(CCCc1ccc2c(c1)OCCO2)NCCNC(=O)Cn1c(=O)[nH]c(=O)c2ccccc21", "target": "TNKS", "assay": "enzyme activity, inhibitor", "conditions": "5 nM", "inhibition": "0%"}
{"Compound": "NC(=O)c1cccc(NC(=O)c2cc(-c3cccs3)n(-c3ccc(Cl)cc3)n2)c1", "target": "Genome polyprotein NS2B-NS3 protease", "assay": "reporter gene", "test system": "HeLa", "conditions": "12.5 µM", "inhibition": "44 ± 10%"}
{"Compound": "CC1Cc2ccccc2N1C(=O)CN1CCN(Cc2ccccc2)CC1 (stereo not drawn)", "target": "DRD1 (Homo sapiens, UniProt P21728)", "assay": "radioligand binding", "conditions": "concentration not given, with: [3H]SCH23390", "inhibition": "35.1%"}
{"Compound": "N=C(N)NCc1cccc(NC(=O)c2cc(-c3ccccc3)n(-c3ccccc3)n2)c1", "target": "Genome polyprotein NS2B-NS3 protease", "assay": "enzyme activity, fluorogenic AMC substrate", "conditions": "50 µM", "inhibition": "60%"}
{"Compound": "CCn1cc(-c2cccc(C(F)(F)F)c2)c2sc(C(=N)NC3CCS(=O)(=O)CC3)cc2c1=O", "target": "CECR2 (Homo sapiens, UniProt Q9BXF3)", "conditions": "1 µM", "inhibition": "99.3%"}
{"Compound": "CC(C)(C)c1ccc(OS(=O)(=O)Oc2cncc(C(=O)NO)c2)cc1", "target": "HDAC11", "conditions": "10 µM", "inhibition": "39%"}
{"Compound": "C=CC(=O)Nc1cccc(-c2cnc3[nH]cc(C(=O)NC(C)(C)C)c3n2)c1", "target": "DYRK3 (Homo sapiens, UniProt O43781)", "assay": "enzyme activity, inhibitor", "conditions": "0.1 µM", "inhibition": "2%"}
{"Compound": "C[Si]1(C[C@H](CN)CC(=O)O)CCCC1", "target": "VIPR1", "assay": "ligand displacement, radioligand", "conditions": "70 µM", "inhibition": "-3%"}
{"Compound": "NC(=O)c1cccc(NC(=O)c2cc(-c3ccc(Br)cc3)n(-c3ccccc3)n2)c1", "target": "Genome polyprotein NS2B-NS3 protease", "assay": "reporter gene", "test system": "HeLa", "conditions": "12.5 µM", "inhibition": "49%"}
{"Compound": "CC[C@H](C)[C@@H]1NC(=O)[C@H](Cc2ccccc2C(F)(F)F)NC(=O)CCSCc2cccc(n2)CSCCCNC(=O)[C@H](CCCCCC(=O)NO)NC1=O", "target": "HDAC4 (Homo sapiens, UniProt P56524)", "assay": "enzyme activity, inhibitor, fluorogenic", "conditions": "30 µM", "inhibition": "30%"}
{"Compound": "O=C(N(c1ccccc1)c1ccccc1)n1ccnn1", "target": "Acylamino-acid-releasing enzyme (Apeh, Mus musculus, UniProt Q8R146)", "assay": "serine hydrolase activity, inhibitor, competitive gel-based ABPP", "test system": "mouse T-cell proteome", "conditions": "1 µM, 30 min, 37 °C", "inhibition": "< 50%"}
{"Compound": "NC(=O)c1cccc(NC(=O)c2oncc2-c2ccccc2)c1", "target": "Genome polyprotein NS2B-NS3 protease", "assay": "enzyme activity, fluorogenic AMC substrate", "conditions": "50 µM", "inhibition": "25%"}
{"Compound": "COc1ccc(C#CC2=C[C@H]3C[C@@]4(OC(=O)C=C24)[C@H]2CC[C@H](C(OC)OC)N32)cc1", "target": "CNR2 (Homo sapiens, UniProt P34972)", "assay": "ligand displacement, radioligand", "conditions": "10 µM", "inhibition": "-12%"}
{"note": "Repeated from above:"}
{"Compound": "C[Si](C)(C)C[C@@H](CN)CC(=O)O", "target": "TACR2 (Homo sapiens, UniProt P21452)", "assay": "ligand displacement, radioligand", "conditions": "75 µM", "inhibition": "-13%"}
{"Compound": "O=C1c2sc(-c3ccc(N4CCC(F)C4)nc3F)nc2CCN1c1cccnc1 (stereo not drawn)", "target": "TAR DNA-binding protein 43, aggregated (TARDBP, Homo sapiens, UniProt Q13148)", "assay": "radioligand binding", "test system": "homogenate, FTLD-TDP, type A", "conditions": "1000 nM, with: [3H]ACI-19626", "inhibition": "82.9% and 87.1%"}
